Results of several laboratories.
Compare with care: the assays were run in different laboratories. “And” joins repeats or separate records; there may be more than shown. ± gives the spread as reported.
U2AF2: U2AF2 148-342 (Homo sapiens, UniProt P26368)
Chain of UniProt P26368 (whole entry, looked up): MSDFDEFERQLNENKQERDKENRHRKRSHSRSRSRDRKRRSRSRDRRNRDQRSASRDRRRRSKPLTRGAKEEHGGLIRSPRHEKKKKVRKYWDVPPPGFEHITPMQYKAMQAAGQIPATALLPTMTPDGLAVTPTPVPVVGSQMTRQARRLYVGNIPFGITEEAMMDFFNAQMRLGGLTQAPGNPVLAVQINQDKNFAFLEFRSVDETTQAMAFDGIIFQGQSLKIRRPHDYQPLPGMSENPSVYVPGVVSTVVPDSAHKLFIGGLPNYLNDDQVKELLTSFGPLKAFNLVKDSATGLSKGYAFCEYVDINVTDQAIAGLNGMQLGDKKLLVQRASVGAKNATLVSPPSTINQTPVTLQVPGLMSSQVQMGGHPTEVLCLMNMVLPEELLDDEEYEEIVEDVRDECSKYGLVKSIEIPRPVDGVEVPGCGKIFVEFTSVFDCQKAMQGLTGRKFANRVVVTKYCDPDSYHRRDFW

Substance | target or system | test | system | setting | scale | endpoint | value
Teicoplanin | – | – | QC solution | 2 months, -40 °C, high QC level | – | recovery | 101%
[177Lu]Lu-DOTA-TATE | – | radio-HPLC | mouse serum | 24 h, 37 °C, 50 MBq/nmol | – | intact radiolabelled peptide | 98.1 ± 0.5%
GUUGUCUUG (ssRNA) | U2AF2 | sequencing of bound RNA | RNA | motif only | – | Kd | 1140 nM
caspofungin | – | – | adult ICU patients, mITT, serum | dose not given, EOT | – | aspartate aminotransferase | 27.3 U/L
coproporphyrin I | – | – | human, plasma | dose not given, baseline period | – | diurnal variation (Cmax-Cmean)/Cmean | 37.1 ± 13.9%
cofilin-1, human | CYB5R4 knockout human cells | PP4 interaction, 3xFLAG-PP4C IP-MS | – | concentration not given | baseline: CYB5R4 KO over parental | log2 fold change | 0.08
Polymyxin B | – | LC-MS | Sprague-Dawley rat, left cortex | intracerebroventricular, 0.75 mg/kg, 1 h | – | concentration | 860 ng/mL and 940 ng/mL and 1310 ng/mL and 5790 ng/mL and 4690 ng/mL and 5200 ng/mL and 4090 ng/mL and 1080 ng/mL
coproporphyrin I | – | – | human, serum | 20 mg ezetimibe, ezetimibe alone | – | Tmax | ≤ 2 h
CTOP | – | RP-HPLC | HALO Phenyl-hexyl column | 25 µM, formic acid/methanol, 10 min gradient | – | retention time | 8.22 min
AUAAUUUGC (ssRNA) | U2AF2 | sequencing of bound RNA | RNA | motif only | – | Kd | 970 nM
coproporphyrin III | – | – | human, serum | oral, 20 mg ezetimibe, 1.33 h, geometric mean ezetimibe alone | baseline: at 1.33 h over pre-dose | concentration ratio | 2.65
human histone deacetylase 2 | CYB5R4 knockout human cells | PP4 interaction, 3xFLAG-PP4C IP-MS | – | concentration not given | baseline: CYB5R4 KO over parental | log2 fold change | 0.4
regorafenib N-β-glucuronide | – | – | mouse plasma | 750 ng/mL, 8 h, room temperature | – | short-term stability accuracy | 98%
FNA / CGLSGLGVA-NH2 ([18F]FNA-labelled, C-amide) | – | ex vivo gamma counting | peptide, healthy mouse, lung | 60 min post injection | – | tissue uptake | 0.38 %ID/g

A few entries again:
Substance | target or system | test | system | setting | scale | endpoint | value
Polymyxin B | – | LC-MS | Sprague-Dawley rat, left cortex | intracerebroventricular, 0.75 mg/kg, 1 h | – | concentration | 860 ng/mL and 940 ng/mL and 1310 ng/mL and 5790 ng/mL and 4690 ng/mL and 5200 ng/mL and 4090 ng/mL and 1080 ng/mL
cofilin-1, human | CYB5R4 knockout human cells | PP4 interaction, 3xFLAG-PP4C IP-MS | – | concentration not given | baseline: CYB5R4 KO over parental | log2 fold change | 0.08
